Experimental data pooled from the literature.
Parts stem from different laboratories: compare values within a part only. Substitutions count along the parent as printed.

Study 1
Target: CCNE2, cyclin fold, Cln2 fusion (human)
Method: yeast growth competition, sequencing
Sample: yeast
Setting: weak parent motif
Reference: not given
Direction: higher = stronger binding
Starting sequence: DNAH7 docking peptide (human); HELFQRLDFDNDG
Under “normalised enrichment score”, `F9A` is recorded as -0.358.
`R6A`: “normalised enrichment score” -0.235.
Under “normalised enrichment score”, `D10A` is recorded as -0.247.
For `L7A`, “normalised enrichment score” read -0.189.
`Q5A`: “normalised enrichment score” 0.106.
For `H1A`, “normalised enrichment score” read -0.0238.

Study 2
Target: ATF1, bZIP domain (human)
Method: DHFR protein complementation
Sample: yeast
Setting: single substitutions, most at no-binding floor
Reference: wild-type JUN-FOS pair
Direction: higher = stronger binding
Starting sequence: JUN, bZIP domain (human); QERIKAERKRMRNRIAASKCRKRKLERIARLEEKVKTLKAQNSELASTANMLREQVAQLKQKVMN; partner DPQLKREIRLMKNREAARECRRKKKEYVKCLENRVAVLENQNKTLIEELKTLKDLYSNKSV
`V56E` gave a binding fitness of -1.64 natural log.
`A46F` gave a binding fitness of -1.56 natural log.
`A40Q` gave a binding fitness of -1.48 natural log.
The binding fitness of `N42F` is reported as -1.44 natural log.
With `E54R` the binding fitness was -1.47 natural log.
`V35W` has a binding fitness of -1.56 natural log.
With `L31Y` the binding fitness was -1.48 natural log.
For `L38K`, the binding fitness was -1.48 natural log.
`V56H` gave a binding fitness of -1.53 natural log.
For `T37Y`, the binding fitness was -1.47 natural log.
For `E33S`, the binding fitness was -1.56 natural log.
`M51D` has a binding fitness of -1.41 natural log.
`V35P` gave a binding fitness of -1.58 natural log.
`R53N` gave a binding fitness of -1.48 natural log.
`I28F` gave a binding fitness of -1.55 natural log.

Study 3
Target: Sal-like protein 4, full length isoform B (SALL4, Homo sapiens, UniProt Q9UJQ4-2, residues 1-616)
Method: universal PBM
Form: double-stranded DNA, one strand shown
Sample: in vitro
Tested at: not given
Setting: 8-mer, flanks averaged, mean of replicates
Direction: higher = stronger binding
The E-score of `ATCAGGAG` is reported as 0.0148.
The E-score of `AGCACCAA` is reported as 0.0232.
`ATGGTGTG` has an E-score of 0.0522.
For `GGTCTGAC`, the E-score was -0.187.
`AATCCAAC` gave an E-score of 0.0277.
`GACGAGTC` gave an E-score of -0.121.
`ATTAGCCG` gave an E-score of -0.0594.
With `CTTTTACC` the E-score was 0.0604.
The E-score of `CCGTATAC` is reported as 0.0688.
`CCGATAGC` has an E-score of -0.223.
For `AACTAGAA`, the E-score was 0.181.
With `AATAATAC` the E-score was 0.371.
For `AACCGGGA`, the E-score was -0.139.
`GGAGTTAA` gave an E-score of 0.00983.
The E-score of `CTCCCCAG` is reported as -0.106.
`CAGGGGTA` gave an E-score of -0.0498.
The E-score of `CTACTACA` is reported as 0.203.
For `CTCTATCC`, the E-score was -0.109.
`AGATACGA` has an E-score of 0.115.
For `CCCTAGGG`, the E-score was -0.252.
For `TAAATACA`, the E-score was 0.33.
The E-score of `TCTCGCCA` is reported as -0.161.
For `ATGCACAT`, the E-score was 0.175.
The E-score of `AATGGTAA` is reported as 0.231.
`GAACAGAC` has an E-score of -0.0859.

Study 4
Target: Centromere-binding protein 1, full length, N-terminal tag (CBF1, Saccharomyces cerevisiae, UniProt P17106, residues 1-351)
UniProt P17106, sequence (whole entry, looked up): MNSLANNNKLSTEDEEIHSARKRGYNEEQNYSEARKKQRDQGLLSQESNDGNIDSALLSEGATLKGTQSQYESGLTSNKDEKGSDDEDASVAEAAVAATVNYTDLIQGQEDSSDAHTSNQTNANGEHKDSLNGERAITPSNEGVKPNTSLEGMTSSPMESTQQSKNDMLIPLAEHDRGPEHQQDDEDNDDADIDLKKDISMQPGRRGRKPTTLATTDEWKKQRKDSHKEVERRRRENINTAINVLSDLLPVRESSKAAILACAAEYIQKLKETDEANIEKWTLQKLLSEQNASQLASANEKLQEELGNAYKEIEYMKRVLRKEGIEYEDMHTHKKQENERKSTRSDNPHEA
Method: protein-binding microarray
Form: double-stranded DNA, one strand shown
Sample: in vitro
Tested at: 0.8 µM
Setting: whole 60-bp probe, no competitor
Direction: higher = stronger binding
Shared flanks, not repeated: … GTCTTGATTCGCTTGACGCTGCTG
With `CTAAGCAAAACTGTTGTCGTGATTTATTTAAATTTC` the fluorescence intensity was 643 a.u.
For `GAAGAATACAGTGGGCACATGCCACCTGTTATTTAG`, the fluorescence intensity was 910 a.u.
For `CTATCTTCTTGAAGCCACACGTGAATACTACCTTTC`, the fluorescence intensity was 2380 a.u.
For `CTAGCTTGAAGTGATGATGTTACATGTCAAAGATTC`, the fluorescence intensity was 554 a.u.
`GAACAGACTGGAAATTCCACCACCTCTCTTCCATAG` gave a fluorescence intensity of 523 a.u.
For `TGTACGAAGCTATATCATGCACTTATAGTAGTTAGG`, the fluorescence intensity was 492 a.u.
With `GAATAGATTTTACGTGATATGTTGGATAAGTAGTAG` the fluorescence intensity was 605 a.u.
The fluorescence intensity of `CTACGTAGGATTGGACACGAGGTTCTTTTTTTATTC` is reported as 737 a.u.
`CTAGAAGTAATAACGAAGGTGGTGTAGAGTATATTC` has a fluorescence intensity of 476 a.u.
With `GAAGCCCTAGTCAATGGCATCATGCGGGAACGTTAG` the fluorescence intensity was 531 a.u.
The fluorescence intensity of `GAATCCTATTAACGTGGCGTAAAACAATGATATTAG` is reported as 591 a.u.
With `CCTAACTACTATATATTCGTGATATAGCTTCGTACA` the fluorescence intensity was 560 a.u.
The fluorescence intensity of `CTAGCGTTATGCTTCCATGTGACCCAACATCTATTC` is reported as 2780 a.u.
For `CTACAATACCACCATGACGTCATTAACGTATAATTC`, the fluorescence intensity was 527 a.u.
With `CTAATTCGCTTCTGTACATCAGCCGGTATTCGCTTC` the fluorescence intensity was 489 a.u.

Study 5
Target: RNA binding protein fox-1 homolog 2, RRM domain, GST-SBP tag (RBFOX2, Homo sapiens, UniProt O43251-10, residues 100-194)
Method: RNA Bind-n-Seq
Form: RNA
Sample: in vitro
Tested at: 365 nM
Setting: natural RNA segment, single round, ends assumed
Reference: no-protein control
Direction: higher = stronger binding
Shared flanks, not repeated: GGGAGUUCUACAGUCCGACGAUC … UGGAAUUCUCGGGUGCCAA
Residues (chain): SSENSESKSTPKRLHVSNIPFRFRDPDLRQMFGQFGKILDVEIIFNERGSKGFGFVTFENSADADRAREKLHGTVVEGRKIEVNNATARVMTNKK
Under “RBNS enrichment (R)”, `ACCCCCUUUCCCCACACCUCCCCCUGCUGCUGCUGCCCCAGCGUCUUGACGGGAGCAUUGGCCCCUGAGCCCAGAGAAGCUGGAAGCCUGCCGAAAACAGGAGCAAAUGG` is recorded as 0.803.
`AUCCGAGGUGCUGCCGGGGCAGCGGGAGGUGGCUGGACCCAUCGCAUCUAAAACUGGCCCAGGACACUUGGUGUAUGCGUGACUUGGCUGUGGCUGUCUUUUUUAAUCCU`: “RBNS enrichment (R)” 5.05.
`GCCAACAAAGCCACAUGGCUGUCCUAGUGAGCUUCCUUUCUUACCUGUCUUGAGCUGGGCGUCUCUUUAAUUACUGCCUCUGCCCCGGACCCUUCUCUCUAGACUUGGGA`: “RBNS enrichment (R)” 0.753.
`CACUAUUUUAAAUAAAUUAUAAGCUUUAAGGUACGAAGUAUUUAAUAGAUCUAAUCAAAUAUGUUGAUUCAUGGCUAUAAUAAAGCAGGAGCAAUUAUAAAAUCUUCAAU`: “RBNS enrichment (R)” 0.619.
Under “RBNS enrichment (R)”, `GUCAGGUCUGUUCCCCAACUGAAAGGGCUGUAAAAGAAUGGAUUAAUGUUUAGCUCUCACAAAGAGAGAUAACCUUGGAUACAUCUUCAUCUUCUAGCUAUAUAAAGAAA` is recorded as 0.62.
`AUGUGAGUGACAGGGAACAAUCCCAGCUCUGGGCUCUGCAGAAACUCACAAACUAAACUCCUUUCUGGUUGUCUGUUUUCAAAAUAGAUACAAUAAACAUUGUUUAUGUC` — result for “RBNS enrichment (R)”: 0.251.
`GUUUGUUAUCUCAUCUGGAACCUACACCAAGAGAUGCAGUCAGCAUCUUAAAGUAAAUGUUCAUGGAAGCUAAAAAAUUUACCUCCUUUCCUUUUCCCUUUCCCCUUAAA`: “RBNS enrichment (R)” 0.658.
`AGAGCUGUGGAUGCCGCCUCCUGCCCUGCCUACCCCUGAAACGUGGGGAAUGGGGGCCCCAGGACAGCAUCAGGACUUUUGAGUCCAGCUGCCAGCAAUGGUUCCAACUC` — result for “RBNS enrichment (R)”: 0.278.
Under “RBNS enrichment (R)”, `CCAAUUGUGGACUUAAAUUAGUCAAAUUGAGAGUUACUGAGUCCAUUCAGAUCUCCAGUAGGGUUUUGUAUCUAAUGUAUUUGGCCACCAGUUUUACAUGUAGGUCAUGA` is recorded as 0.491.
For `GUGGAGCAUUUCCUGAAAGGCUUGAAUGAGCUGGUUCCUGAGAACCUCCUGGCUAUUUUUGAUGAGAAUGAGCUUGAGCUGCUGAUGUGUGGGACUGGAGACAUCAAUGU`, “RBNS enrichment (R)” read 4.25.
For `GGGAGCUAACACCAAGCAACUGGUUCCGUGGGGGAAGGUUUUAGGGAGCUCAGACUGCUGCUUUCAUAGGCAAAGUGUGCCCAUGGGGGCCAGUCAUGGGAACAUGUCAA`, “RBNS enrichment (R)” read 0.353.
For `UCGAGCCCUUGGUGGGGACAGCUGGGGAGAUGGCAGUGCAGGCUGGAACCUGGGCUGCCCCAGAACACAGUCCAUUACGAUAGAAACACUAAUUGAGCAUGUGCGUGGGG`, “RBNS enrichment (R)” read 2.71.

Further values, each from its own experiment
`PhoQ, residues 284 288 289 292 302 303 SNGLAW` has a fold induction of 7.4 (PhoP, residues 12 14 15 18 19 NMSSL (Escherichia coli, UniProt P23836); Sort-seq, refers to: YFP reporter; E. coli; PhoQ-PhoP variant library, with: 10 µM Mg2+; reference: high Mg2+ state, higher = stronger signaling).

Excerpt of the above (study 5):
Under “RBNS enrichment (R)”, `ACCCCCUUUCCCCACACCUCCCCCUGCUGCUGCUGCCCCAGCGUCUUGACGGGAGCAUUGGCCCCUGAGCCCAGAGAAGCUGGAAGCCUGCCGAAAACAGGAGCAAAUGG` is recorded as 0.803.
`AUCCGAGGUGCUGCCGGGGCAGCGGGAGGUGGCUGGACCCAUCGCAUCUAAAACUGGCCCAGGACACUUGGUGUAUGCGUGACUUGGCUGUGGCUGUCUUUUUUAAUCCU`: “RBNS enrichment (R)” 5.05.
`GCCAACAAAGCCACAUGGCUGUCCUAGUGAGCUUCCUUUCUUACCUGUCUUGAGCUGGGCGUCUCUUUAAUUACUGCCUCUGCCCCGGACCCUUCUCUCUAGACUUGGGA`: “RBNS enrichment (R)” 0.753.
`CACUAUUUUAAAUAAAUUAUAAGCUUUAAGGUACGAAGUAUUUAAUAGAUCUAAUCAAAUAUGUUGAUUCAUGGCUAUAAUAAAGCAGGAGCAAUUAUAAAAUCUUCAAU`: “RBNS enrichment (R)” 0.619.
Under “RBNS enrichment (R)”, `GUCAGGUCUGUUCCCCAACUGAAAGGGCUGUAAAAGAAUGGAUUAAUGUUUAGCUCUCACAAAGAGAGAUAACCUUGGAUACAUCUUCAUCUUCUAGCUAUAUAAAGAAA` is recorded as 0.62.
`AUGUGAGUGACAGGGAACAAUCCCAGCUCUGGGCUCUGCAGAAACUCACAAACUAAACUCCUUUCUGGUUGUCUGUUUUCAAAAUAGAUACAAUAAACAUUGUUUAUGUC` — result for “RBNS enrichment (R)”: 0.251.
`GUUUGUUAUCUCAUCUGGAACCUACACCAAGAGAUGCAGUCAGCAUCUUAAAGUAAAUGUUCAUGGAAGCUAAAAAAUUUACCUCCUUUCCUUUUCCCUUUCCCCUUAAA`: “RBNS enrichment (R)” 0.658.
`AGAGCUGUGGAUGCCGCCUCCUGCCCUGCCUACCCCUGAAACGUGGGGAAUGGGGGCCCCAGGACAGCAUCAGGACUUUUGAGUCCAGCUGCCAGCAAUGGUUCCAACUC` — result for “RBNS enrichment (R)”: 0.278.
Under “RBNS enrichment (R)”, `CCAAUUGUGGACUUAAAUUAGUCAAAUUGAGAGUUACUGAGUCCAUUCAGAUCUCCAGUAGGGUUUUGUAUCUAAUGUAUUUGGCCACCAGUUUUACAUGUAGGUCAUGA` is recorded as 0.491.
For `GUGGAGCAUUUCCUGAAAGGCUUGAAUGAGCUGGUUCCUGAGAACCUCCUGGCUAUUUUUGAUGAGAAUGAGCUUGAGCUGCUGAUGUGUGGGACUGGAGACAUCAAUGU`, “RBNS enrichment (R)” read 4.25.
For `GGGAGCUAACACCAAGCAACUGGUUCCGUGGGGGAAGGUUUUAGGGAGCUCAGACUGCUGCUUUCAUAGGCAAAGUGUGCCCAUGGGGGCCAGUCAUGGGAACAUGUCAA`, “RBNS enrichment (R)” read 0.353.
For `UCGAGCCCUUGGUGGGGACAGCUGGGGAGAUGGCAGUGCAGGCUGGAACCUGGGCUGCCCCAGAACACAGUCCAUUACGAUAGAAACACUAAUUGAGCAUGUGCGUGGGG`, “RBNS enrichment (R)” read 2.71.
